Published values from different studies.
Lines come from different studies, so protocols differ.

O=S(=O)(NNc1nnc(Cl)c2ccccc12)c1ccc(F)cc1
cytotoxicity (Vero; MTT; 125 µg/mL): 47.3%

CCCCCCCCCCCCCCCC(NCc1cccc(C)c1)=C1C(=O)OC(CO)C1=O (stereo not drawn)
G1 phase cells (G2-synchronized tsFT210 cells; flow cytometry; 5 µM, 4 h, 32 °C, release from G2 arrest): 63.5%

O=C1CCNC(=O)N1
log2 fold change (binding, MIDAS equilibrium dialysis LC-MS; A2AR-BRIL thermostabilized; concentration not given; baseline: no-protein control): -0.539

Cn1cc(-c2ccc(-c3cncc(Cl)c3N3CCC4(CCNC4=O)CC3)cc2)cn1
fold change in expression (COLO 205; microarray, refers to: STAMBPL1; concentration not given, 2 h, gene set AMSH-2; baseline: untreated cells): -1.04

NCCS
log2 fold change (binding, MIDAS equilibrium dialysis LC-MS; A2AR-BRIL thermostabilized; concentration not given; baseline: no-protein control): -0.116

Cc1cc(Nc2ncc(Cl)c(Nc3ccccc3S(=O)(=O)C(C)C)n2)c(OC(C)C)cc1C1CCNCC1
log2 fold change (CLB-BAR; phosphoproteomics LC-MS/MS, refers to: FAM59B phosphorylation; 200 nM, 60 min; baseline: untreated): -2.15

CCn1cc(-c2cc(Cn3ccoc3=N)cc3c2CCN([C@@H](C)c2cc(OC)ccn2)C3=O)c(C(F)(F)F)n1
EC50 (RERF-LC-MS; cell growth, inhibitor; 120 h): 8.39 µM

CSc1cc(Oc2ccnc3[nH]c(=O)cnc23)ccc1NC(=O)Nc1cc(C(C)(C)C)nn1-c1ccccc1
phospho/total ratio (patient-derived cell line; RPPA, refers to: mTOR phosphosite 2448; human; 1 µM, 4 h; baseline: DMSO): 0.46

O=C(/C=C/C=C/C=C/C1CCCCC1)NC1=C[C@@](O)(/C=C/C=C/C=C/C(=O)NC2=C(O)CCC2=O)[C@@H]2O[C@@H]2C1=O
GI50 (HuP-T4; cell growth, CellTiter-Glo; 78 h): 11.2 µM

Clc1nc(NCc2ccco2)c2[nH]cnc2n1
ΔPSI (FD iPSC-derived cardiomyocytes; alternative splicing, RNA-seq, refers to: CACNA1G exon chr17:50609881-50609935; unit not given; baseline: DMSO minus compound): -0.206

CCn1cc(-c2cc(Cn3ccnc3)cc3c2CCN([C@H](c2cc(OC)ccn2)C2CC2)C3=O)c(C(F)(F)F)n1
EC50 (HARA; cell growth; 120 h): 11.7 µM

Cn1cnc2c1c(=O)n(CC(=O)Nc1c(Cl)cccc1Cl)c(=O)n2C
cytotoxicity (Vero; MTT; 125 µg/mL): 6.15%

Cc1cc(NS(=O)(=O)c2ccc(NC(=O)/C(C#N)=C/c3ccc(N4CCCCC4)cc3)cc2)no1
protein level (HCT-116; ELISA, refers to: Bcl-2; IC50, 48 h): 0.095 ng/mg

C=Cc1c2[n-]c(c1C)/C=c1\[n-]/c(c(C)c1C=C)=C\c1[n-]c(c(CCC(=O)O)c1C)/C=c1\[n-]c(c(C)c1CCC(=O)O)=C2.[Sn+4]
fold change (SH-SY5Y; RNA-seq, refers to: INSYN2B mRNA; 5 µM, 5 h; baseline: untreated cells): 4.57

CC(C)C[C@@H](/C=C/S(C)(=O)=O)NC(=O)[C@H](CC(C)C)NC(=O)[C@H](CC(C)C)NC(=O)OCc1ccccc1
efficacy (LDR; silenced CMV-GFP reporter derepression, qHTS): 107%

COc1cnc2cccc(N3CCc4c(cc(Cn5ccnc5C)cc4-c4cn(C)nc4C(F)(F)F)C3=O)c2c1
EC50 (KLM1; cell growth, inhibitor; 120 h): > 30 µM

Cc1ccc(/C=[N+](\[O-])c2ccc(N(C)C)cc2)c2nsnc12
efficacy (LDR; silenced CMV-GFP reporter derepression, qHTS): 34%

O=P1(C2CCCCC2)CCCCC1
early apoptotic cells (HaCaT; annexin V/PI flow cytometry; IC50, 72 h): 3.2%

For quick reference, copied from above:
CC(C)C[C@@H](/C=C/S(C)(=O)=O)NC(=O)[C@H](CC(C)C)NC(=O)[C@H](CC(C)C)NC(=O)OCc1ccccc1
efficacy (LDR; silenced CMV-GFP reporter derepression, qHTS): 107%
